Assay results gathered from unrelated publications.
Every numbered part comes from another study and shows a few of its results, in no order.
Chain of UniProt O75385 (whole entry, looked up): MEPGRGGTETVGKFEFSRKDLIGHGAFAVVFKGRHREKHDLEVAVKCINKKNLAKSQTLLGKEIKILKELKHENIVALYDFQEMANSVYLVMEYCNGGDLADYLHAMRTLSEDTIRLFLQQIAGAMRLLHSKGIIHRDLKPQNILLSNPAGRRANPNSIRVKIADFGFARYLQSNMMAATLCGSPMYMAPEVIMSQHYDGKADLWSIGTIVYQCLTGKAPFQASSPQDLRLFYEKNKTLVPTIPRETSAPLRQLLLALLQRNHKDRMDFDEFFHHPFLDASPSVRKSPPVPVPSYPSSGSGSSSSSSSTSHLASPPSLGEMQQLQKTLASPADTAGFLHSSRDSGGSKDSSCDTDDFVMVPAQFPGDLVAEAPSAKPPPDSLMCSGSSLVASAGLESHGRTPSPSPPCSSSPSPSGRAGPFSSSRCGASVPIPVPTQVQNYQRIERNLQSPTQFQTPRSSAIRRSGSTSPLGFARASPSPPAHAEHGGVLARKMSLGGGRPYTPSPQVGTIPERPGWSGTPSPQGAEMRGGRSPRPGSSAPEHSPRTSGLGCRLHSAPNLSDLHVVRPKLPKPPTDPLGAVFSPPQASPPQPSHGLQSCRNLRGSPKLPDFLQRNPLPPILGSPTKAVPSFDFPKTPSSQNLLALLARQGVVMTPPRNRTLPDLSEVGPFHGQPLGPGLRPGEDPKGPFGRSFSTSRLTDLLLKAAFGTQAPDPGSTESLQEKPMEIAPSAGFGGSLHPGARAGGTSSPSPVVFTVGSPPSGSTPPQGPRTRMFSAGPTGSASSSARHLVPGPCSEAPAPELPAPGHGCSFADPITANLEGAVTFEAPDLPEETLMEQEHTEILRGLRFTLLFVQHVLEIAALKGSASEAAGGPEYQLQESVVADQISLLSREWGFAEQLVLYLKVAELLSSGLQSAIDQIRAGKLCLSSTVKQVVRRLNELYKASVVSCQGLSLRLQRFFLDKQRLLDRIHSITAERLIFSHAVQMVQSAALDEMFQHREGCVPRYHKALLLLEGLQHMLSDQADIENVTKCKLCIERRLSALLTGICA
Chain of UniProt Q6ZN16 (whole entry, looked up): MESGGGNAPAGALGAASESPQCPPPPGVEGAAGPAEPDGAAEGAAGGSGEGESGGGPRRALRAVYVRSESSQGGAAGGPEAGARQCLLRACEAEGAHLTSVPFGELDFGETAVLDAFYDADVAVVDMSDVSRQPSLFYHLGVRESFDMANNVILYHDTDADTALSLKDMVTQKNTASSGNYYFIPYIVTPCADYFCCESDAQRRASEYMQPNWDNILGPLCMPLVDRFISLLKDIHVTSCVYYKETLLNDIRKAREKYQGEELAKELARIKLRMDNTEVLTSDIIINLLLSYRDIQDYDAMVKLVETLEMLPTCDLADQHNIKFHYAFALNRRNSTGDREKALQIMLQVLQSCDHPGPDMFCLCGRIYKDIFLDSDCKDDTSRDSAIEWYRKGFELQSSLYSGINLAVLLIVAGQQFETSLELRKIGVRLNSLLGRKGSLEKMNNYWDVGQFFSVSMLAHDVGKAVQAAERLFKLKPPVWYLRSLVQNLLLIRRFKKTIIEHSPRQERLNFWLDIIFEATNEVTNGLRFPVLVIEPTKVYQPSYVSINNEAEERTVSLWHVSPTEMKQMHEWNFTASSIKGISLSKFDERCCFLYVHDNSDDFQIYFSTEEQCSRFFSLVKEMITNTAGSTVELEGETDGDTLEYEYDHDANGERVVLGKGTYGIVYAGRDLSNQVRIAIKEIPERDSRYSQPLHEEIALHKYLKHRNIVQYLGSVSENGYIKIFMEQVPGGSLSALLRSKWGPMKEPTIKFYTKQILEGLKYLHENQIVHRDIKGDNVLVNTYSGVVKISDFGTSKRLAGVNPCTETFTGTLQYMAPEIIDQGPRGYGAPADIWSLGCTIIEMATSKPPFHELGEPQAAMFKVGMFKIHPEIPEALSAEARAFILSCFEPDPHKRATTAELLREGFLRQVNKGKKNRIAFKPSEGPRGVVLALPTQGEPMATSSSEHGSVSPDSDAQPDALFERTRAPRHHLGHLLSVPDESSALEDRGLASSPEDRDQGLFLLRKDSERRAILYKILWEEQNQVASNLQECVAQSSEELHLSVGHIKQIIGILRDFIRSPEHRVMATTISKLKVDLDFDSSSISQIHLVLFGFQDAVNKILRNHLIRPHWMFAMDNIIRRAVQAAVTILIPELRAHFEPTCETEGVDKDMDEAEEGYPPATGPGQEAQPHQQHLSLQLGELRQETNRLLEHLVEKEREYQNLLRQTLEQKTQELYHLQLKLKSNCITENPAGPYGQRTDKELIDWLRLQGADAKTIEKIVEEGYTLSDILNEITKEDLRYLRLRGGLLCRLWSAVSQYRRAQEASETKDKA
Chain of UniProt P35916 (whole entry, looked up): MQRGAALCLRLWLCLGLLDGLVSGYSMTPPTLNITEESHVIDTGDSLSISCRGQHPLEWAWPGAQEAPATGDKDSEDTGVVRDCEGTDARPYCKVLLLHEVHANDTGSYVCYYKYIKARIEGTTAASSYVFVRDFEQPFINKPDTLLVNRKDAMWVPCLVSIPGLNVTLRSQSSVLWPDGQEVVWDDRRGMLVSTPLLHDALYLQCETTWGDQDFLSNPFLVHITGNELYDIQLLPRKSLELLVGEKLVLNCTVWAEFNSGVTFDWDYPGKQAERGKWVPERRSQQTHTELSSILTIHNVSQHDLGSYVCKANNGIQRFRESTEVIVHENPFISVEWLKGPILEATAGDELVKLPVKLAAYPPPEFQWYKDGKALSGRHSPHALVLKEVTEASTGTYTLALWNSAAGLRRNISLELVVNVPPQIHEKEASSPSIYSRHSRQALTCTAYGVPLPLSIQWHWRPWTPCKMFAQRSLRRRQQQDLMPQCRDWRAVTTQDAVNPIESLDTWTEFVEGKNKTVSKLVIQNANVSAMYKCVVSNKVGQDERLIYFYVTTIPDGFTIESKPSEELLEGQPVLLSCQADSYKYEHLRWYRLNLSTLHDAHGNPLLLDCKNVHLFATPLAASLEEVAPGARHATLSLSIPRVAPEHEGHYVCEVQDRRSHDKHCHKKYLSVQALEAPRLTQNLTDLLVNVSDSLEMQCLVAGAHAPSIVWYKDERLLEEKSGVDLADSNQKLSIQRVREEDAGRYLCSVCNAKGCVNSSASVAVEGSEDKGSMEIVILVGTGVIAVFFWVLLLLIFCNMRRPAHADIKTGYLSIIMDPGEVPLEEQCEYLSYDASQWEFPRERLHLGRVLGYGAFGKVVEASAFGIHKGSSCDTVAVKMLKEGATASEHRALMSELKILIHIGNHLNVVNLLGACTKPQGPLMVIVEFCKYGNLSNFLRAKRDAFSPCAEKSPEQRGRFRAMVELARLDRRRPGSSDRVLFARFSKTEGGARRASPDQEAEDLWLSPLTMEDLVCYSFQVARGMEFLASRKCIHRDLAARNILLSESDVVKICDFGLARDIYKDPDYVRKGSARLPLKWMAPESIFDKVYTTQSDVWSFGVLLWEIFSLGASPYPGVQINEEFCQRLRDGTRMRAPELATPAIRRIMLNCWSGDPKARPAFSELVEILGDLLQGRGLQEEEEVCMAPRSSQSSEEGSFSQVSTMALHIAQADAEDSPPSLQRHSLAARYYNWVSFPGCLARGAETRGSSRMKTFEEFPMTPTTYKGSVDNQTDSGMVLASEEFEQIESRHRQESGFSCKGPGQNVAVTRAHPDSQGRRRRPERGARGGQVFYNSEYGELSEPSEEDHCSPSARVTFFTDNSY
Chain of UniProt Q9BWU1 (whole entry, looked up): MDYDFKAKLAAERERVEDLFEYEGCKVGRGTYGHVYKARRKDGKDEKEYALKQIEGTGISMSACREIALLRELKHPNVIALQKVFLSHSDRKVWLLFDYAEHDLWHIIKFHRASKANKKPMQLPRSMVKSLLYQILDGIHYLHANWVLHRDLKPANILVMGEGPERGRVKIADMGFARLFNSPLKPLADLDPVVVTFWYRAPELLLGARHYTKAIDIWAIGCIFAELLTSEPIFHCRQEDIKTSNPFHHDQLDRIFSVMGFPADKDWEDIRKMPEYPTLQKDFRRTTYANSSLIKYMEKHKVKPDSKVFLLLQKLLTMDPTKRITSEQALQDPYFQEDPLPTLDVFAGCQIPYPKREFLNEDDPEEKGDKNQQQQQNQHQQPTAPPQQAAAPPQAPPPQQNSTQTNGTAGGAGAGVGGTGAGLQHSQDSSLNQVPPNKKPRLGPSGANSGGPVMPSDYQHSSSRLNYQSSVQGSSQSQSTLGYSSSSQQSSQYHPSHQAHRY
Chain of UniProt Q8TDR2 (whole entry, looked up): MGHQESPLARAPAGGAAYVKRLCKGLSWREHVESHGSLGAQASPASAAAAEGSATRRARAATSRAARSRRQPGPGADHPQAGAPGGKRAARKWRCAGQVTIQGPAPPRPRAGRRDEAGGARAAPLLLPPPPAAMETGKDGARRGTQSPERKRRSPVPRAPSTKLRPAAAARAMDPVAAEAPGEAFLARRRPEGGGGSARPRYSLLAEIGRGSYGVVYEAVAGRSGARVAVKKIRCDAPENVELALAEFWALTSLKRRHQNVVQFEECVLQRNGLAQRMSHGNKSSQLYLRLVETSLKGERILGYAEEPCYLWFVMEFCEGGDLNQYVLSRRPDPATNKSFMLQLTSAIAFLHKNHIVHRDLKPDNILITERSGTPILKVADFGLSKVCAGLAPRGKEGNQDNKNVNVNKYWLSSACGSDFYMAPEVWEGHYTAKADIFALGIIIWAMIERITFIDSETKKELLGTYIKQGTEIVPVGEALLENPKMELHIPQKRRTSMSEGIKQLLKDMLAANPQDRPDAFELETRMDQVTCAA

Series 1
Compound: Cc1ccc(NC(=O)c2ccnc(C(F)(F)F)c2)cc1-c1cc(OCCO)nc(N2CCOCC2)c1
target	effect on	technique	concentration	remaining binding
Serine/threonine-protein kinase Nek6 (NEK6, Homo sapiens, UniProt Q9HC98)	binding	–	1 µM	81%
Cyclin-dependent kinase 19 (CDK19, Homo sapiens, UniProt Q9BWU1)	–	DiscoverX cell-free binding	1000 nM	98%
Serine/threonine-protein kinase ULK1 (ULK1, Homo sapiens, UniProt O75385)	binding	–	1 µM	85%
Ephrin type-A receptor 8 (EPHA8, Homo sapiens, UniProt P29322)	binding	competition with immobilised ligand	1 µM	92%
Serine/threonine-protein kinase DCLK1 (DCLK1, Homo sapiens, UniProt O15075)	binding	competition with immobilised ligand	1 µM	96%
TRAF2 and NCK-interacting protein kinase (TNIK, Homo sapiens, UniProt Q9UKE5)	binding	competition with immobilised ligand	1 µM	100%
Mitogen-activated protein kinase kinase kinase 15 (MAP3K15, Homo sapiens, UniProt Q6ZN16)	binding	–	1 µM	66%

Series 2
SMILES: CN([C@@H]1CCc2c(CC(=O)O)c3cc(S(C)(=O)=O)ccc3n2C1)S(=O)(=O)c1ccc(F)cc1
Effect on: cell-free assay
Technique: competition with immobilised ligand
Concentration: 1 µM
target	remaining binding
Serine/threonine-protein kinase 35 (STK35, Homo sapiens, UniProt Q8TDR2)	100%
Phosphatidylinositol 4,5-bisphosphate 3-kinase catalytic subunit beta isoform (PIK3CB, Homo sapiens, UniProt P42338)	100%
Mitogen-activated protein kinase 6 (MAPK6, Homo sapiens, UniProt Q16659)	100%
Ephrin type-A receptor 2 (EPHA2, Homo sapiens, UniProt P29317)	100%
Vascular endothelial growth factor receptor 3 (FLT4, Homo sapiens, UniProt P35916)	100%
Macrophage colony-stimulating factor 1 receptor (CSF1R, Homo sapiens, UniProt P07333)	100%
Casein kinase I isoform gamma-1 (CSNK1G1, Homo sapiens, UniProt Q9HCP0)	91%

Series 3
Target: Casein kinase I isoform alpha (CSNK1A1, Homo sapiens, UniProt P48729)
Chain of UniProt P48729 (whole entry, looked up): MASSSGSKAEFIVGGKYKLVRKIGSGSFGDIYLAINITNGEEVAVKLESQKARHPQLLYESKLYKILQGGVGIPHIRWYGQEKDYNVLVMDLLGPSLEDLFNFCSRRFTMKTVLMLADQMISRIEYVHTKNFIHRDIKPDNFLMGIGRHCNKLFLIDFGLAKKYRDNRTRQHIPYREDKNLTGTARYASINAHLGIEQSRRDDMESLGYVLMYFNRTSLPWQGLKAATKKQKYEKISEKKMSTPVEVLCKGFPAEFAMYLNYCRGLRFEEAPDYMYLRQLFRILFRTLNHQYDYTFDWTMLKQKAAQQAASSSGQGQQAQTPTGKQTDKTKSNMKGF
Effect on: enzyme activity
Action: inhibitor
Concentration: 0.5 µM
Relative to: control
SMILES	remaining activity [%]
Nc1ccc2ncnc(NCCc3ccc(Oc4ccccc4)cc3)c2c1	102
COc1ccc(OC)c2c(=S)c3ccccc3[nH]c12	102
NCCNc1ncc(C(N)=O)c(Nc2cccc(C(F)(F)F)c2)n1	74.8
Nc1ncnc2n[nH]c(Nc3ccc(F)cc3)c12	90.3
Cn1sc(=O)n(Cc2ccccc2)c1=O	99.5
Cc1ccc(Nc2nccc(N(C)c3ccc4c(C)n(C)nc4c3)n2)cc1S(N)(=O)=O	100
CO[C@H]1C[C@@H]2CC[C@@H](C)[C@@](O)(O2)C(=O)C(=O)N2CCCC[C@H]2C(=O)O[C@H]([C@H](C)C[C@@H]2CC[C@@H](O)[C@H](OC)C2)CC(=O)[C@H](C)/C=C(\C)[C@@H](O)[C@@H](OC)C(=O)[C@H](C)C[C@H](C)/C=C/C=C/C=C/1C	99.3
O=C1NC(=O)C(c2cn(CCCn3ccnc3)c3ccccc23)=C1Nc1ccccc1	102
CC(C)[C@H](CO)Nc1nc(Nc2cc(N)cc(Cl)c2)c2ncn(C(C)C)c2n1	75.5
C#Cc1cccc(Nc2ncnc3cc(OCCOC)c(OCCOC)cc23)c1	98.6
Cc1ccc(NC(=O)c2ccc(CN3CCN(C)CC3)cc2)cc1Nc1nc(-c2cccnc2)cs1	98.5
COc1cc2nccc(Oc3ccc(NC(=S)NC(=O)c4ccccc4C)cc3)c2cc1OC	96.3
Oc1ccc(-c2nc(-c3ccncc3)c(-c3ccc(F)cc3)[nH]2)cc1	62.3
Nc1[nH]nc2nc3ccccc3nc12	101
CN(C)c1ccc(C=C2C(=O)Nc3ccccc32)cc1	105

Series 4
Host: mouse
Medium: microsomes or S9
Concentration: 2 µM
Time: 0.5 h
SMILES	remaining compound
O=C(OCC(=O)c1c(-c2ccccc2)[nH]c2ccccc12)c1ccccc1NCCO	37.3%
CC(C)(C)OC(=O)N1CCCn2c1nn(-c1cc(-c3cccc(C#N)c3)ccc1N)c2=O	39%
COc1cccc(N(Cc2n[nH]c(=O)[nH]2)C(=O)CCC2CCCC2)c1	23.9%
O=c1c2c3c(sc2ncn1Cc1ccc2c(c1)OCO2)CNCC3	11.4%
COC(CNC(=O)NCc1ncnn1C(C)(C)C)C(C)C (stereo not drawn)	88.3%
CCOC(=O)C1=C(C)N=C2CC(C)(C)CC(O)=C2C1C (stereo not drawn)	49.2%
Cc1c(C(=O)NC2CCN(Cc3ccc(OCCCN(C)C)cc3)CC2)cnn1-c1ccccc1	> 100%

A few entries again (series 4):
SMILES	remaining compound
CC(C)(C)OC(=O)N1CCCn2c1nn(-c1cc(-c3cccc(C#N)c3)ccc1N)c2=O	39%
COc1cccc(N(Cc2n[nH]c(=O)[nH]2)C(=O)CCC2CCCC2)c1	23.9%
O=c1c2c3c(sc2ncn1Cc1ccc2c(c1)OCO2)CNCC3	11.4%
